Measurements collected from several papers.
Each numbered part is a random draw from the data of one study; scales do not carry over between parts.

Set 1 — method: RNA Bind-n-Seq; molecule type: RNA; medium: in vitro; concentration: 365 nM; relative to: no-protein control; reading: higher = stronger binding
Target: RNA binding protein fox-1 homolog 2, RRM domain, GST-SBP tag (RBFOX2, Homo sapiens, UniProt O43251-10, residues 100-194)
Notes: natural RNA segment, single round, ends assumed
Construct (chain): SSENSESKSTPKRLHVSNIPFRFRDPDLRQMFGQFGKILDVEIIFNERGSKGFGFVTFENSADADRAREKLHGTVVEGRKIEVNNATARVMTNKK
`GGGAGUUCUACAGUCCGACGAUCCUUCCAUGCCGGAACCCAGGCCAGGGACCCACCGGCCUGUGGUUUGUGGGAAAGCAGGGUGGACGCUGAGGAGUGAAAGAACCCUGCACCCAGAGGGCCUGCCUGGUGCCUGGAAUUCUCGGGUGCCAA` — result for “RBNS enrichment (R)”: 0.279.
Under “RBNS enrichment (R)”, `GGGAGUUCUACAGUCCGACGAUCUCUGUUCCUUUUGGCUCUAAUAUGCUACAACUGUAGGCCAAUUAUCACUUUACCAAUUAAGAGUUAGGCCAGAUAAGUGAAAUUUAACUUAAGGGCACACAGCUAAUAAGUGGAAUUCUCGGGUGCCAA` is recorded as 0.401.
Under “RBNS enrichment (R)”, `GGGAGUUCUACAGUCCGACGAUCGCUCUUUCAAUUGAGGUGGUUCUCAUUCUUGCUUCUCUGUGUCCCCCAUAGGCUAAUACCCCUGGCACUGAUGGGCCCUGGGAAAUGUACAGUAGACCAGUUGCUCUUUGUGGAAUUCUCGGGUGCCAA` is recorded as 0.375.
`GGGAGUUCUACAGUCCGACGAUCAGUUUGGCUACAGUCGUAAGGAGAACUUGCCUGGCCCCCAGCACCGCUGAUGCCAGACCUUCUCCCGCUGCCAGGAAGCUGUUGUCGACUCCAGACCUGGUUGAGGGAGUUGGAAUUCUCGGGUGCCAA` — result for “RBNS enrichment (R)”: 0.687.

Single results of other studies
G3BP1 C-terminal RGG region: Ras GTPase-activating protein-binding protein 1, C-terminal RGG region (G3BP1, Homo sapiens, UniProt Q13283)
UniProt Q13283, sequence (whole entry, looked up): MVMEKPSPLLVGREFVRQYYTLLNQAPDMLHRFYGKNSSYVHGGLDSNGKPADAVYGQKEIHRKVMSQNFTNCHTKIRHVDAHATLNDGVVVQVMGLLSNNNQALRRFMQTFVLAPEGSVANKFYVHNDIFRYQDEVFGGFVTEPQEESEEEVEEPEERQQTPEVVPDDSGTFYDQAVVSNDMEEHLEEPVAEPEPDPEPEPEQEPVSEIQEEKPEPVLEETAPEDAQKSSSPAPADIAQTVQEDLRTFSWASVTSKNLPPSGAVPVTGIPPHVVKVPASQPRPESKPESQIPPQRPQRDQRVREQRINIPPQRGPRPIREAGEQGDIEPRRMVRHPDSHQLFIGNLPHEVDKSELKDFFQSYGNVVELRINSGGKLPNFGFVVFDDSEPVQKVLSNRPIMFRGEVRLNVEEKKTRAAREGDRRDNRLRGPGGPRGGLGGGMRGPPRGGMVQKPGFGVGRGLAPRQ
The log2 enrichment of `GGGAGUUCUACAGUCCGACGAUCCUGUGCUACACAUCGUAUGUACCGAAUCGGGGAAAAAAAGGGAAAAAAAGGGGAAAAAAAGGAAAGUAUUAUGUUACGCCGUUCGGAUCUUGGAAUUCUCGGGUGUCAAGG` is reported as -1.23 (G3BP1 C-terminal RGG region; RNA Bind-n-Seq; RNA, in vitro; 1 µM, whole 134-nt RNA, ends assumed, with: 150 mM KCl; relative to: input library, higher = stronger binding).
The fold induction of `PhoQ, residues 284 288 289 292 302 303 TAVSDG` is reported as 1.24 (PhoP, residues 12 14 15 18 19 NQAHL (Escherichia coli, UniProt P23836); Sort-seq, refers to: YFP reporter; E. coli; PhoQ-PhoP variant library, with: 10 µM Mg2+; relative to: high Mg2+ state, higher = stronger signaling).
The log2 enrichment of `GGGAGUUCUACAGUCCGACGAUCUGUGCUACACAUCGUAUGUACCGAAUCGGGGUUUUUUUGGGUUUUUUUGGGGUUUUUUUGGGGAAAGUAUUAUGUUACGCCGUUCGGAUCUGGAAUUCUCGGGUGUCAAGG` is reported as -0.712 (G3BP1 C-terminal RGG region; RNA Bind-n-Seq; RNA, in vitro; 1 µM, whole 134-nt RNA, ends assumed, with: 150 mM KCl; relative to: input library, higher = stronger binding).
For `AGGCAGAA`, the E-score was 0.0681 (Histone acetyltransferase KAT6A, winged helix 2, GST fusion (KAT6A, Homo sapiens, UniProt Q92794, residues 85-181); protein binding microarray; double-stranded DNA, one strand shown, in vitro; not given, 8-mer, flanks averaged, mean of 2 arrays, mostly near background; relative to: not given, higher = stronger binding).

Excerpt of the above (single results of other studies):
The fold induction of `PhoQ, residues 284 288 289 292 302 303 TAVSDG` is reported as 1.24 (PhoP, residues 12 14 15 18 19 NQAHL (Escherichia coli, UniProt P23836); Sort-seq, refers to: YFP reporter; E. coli; PhoQ-PhoP variant library, with: 10 µM Mg2+; relative to: high Mg2+ state, higher = stronger signaling).
